# Published values gathered from unrelated publications.
# Each line is one published result; not all experiments were run side by side. ± marks the error that the study gave.
# TDP1: Tyrosyl-DNA phosphodiesterase 1 (TDP1, Homo sapiens, UniProt Q9NUW8)
# UniProt Q9NUW8, sequence (whole entry, looked up): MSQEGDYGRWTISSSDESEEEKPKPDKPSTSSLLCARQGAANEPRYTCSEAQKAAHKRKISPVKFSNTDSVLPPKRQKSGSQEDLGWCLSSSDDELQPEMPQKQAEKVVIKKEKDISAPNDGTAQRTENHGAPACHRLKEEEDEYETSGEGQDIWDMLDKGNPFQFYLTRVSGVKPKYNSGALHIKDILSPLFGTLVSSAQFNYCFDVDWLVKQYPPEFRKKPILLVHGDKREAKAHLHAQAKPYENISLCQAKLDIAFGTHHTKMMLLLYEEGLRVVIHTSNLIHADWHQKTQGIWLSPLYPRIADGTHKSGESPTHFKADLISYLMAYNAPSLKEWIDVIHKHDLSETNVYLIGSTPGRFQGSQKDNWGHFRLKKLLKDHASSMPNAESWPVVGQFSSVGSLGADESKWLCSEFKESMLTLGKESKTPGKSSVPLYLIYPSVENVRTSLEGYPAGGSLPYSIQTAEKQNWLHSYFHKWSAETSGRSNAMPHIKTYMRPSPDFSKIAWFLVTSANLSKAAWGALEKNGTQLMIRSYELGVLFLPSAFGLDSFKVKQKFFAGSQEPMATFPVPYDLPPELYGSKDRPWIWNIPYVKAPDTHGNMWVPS
SMILES,tested on,test,system,conditions,how to read,endpoint,result
CC[C@H](C)[C@@H]1NC(=O)[C@H](Cc2ccccc2)NC(=O)CSC[C@@H](C(N)=O)NC(=O)[C@H](CC(N)=O)NC(=O)[C@H](Cc2c[nH]cn2)NC(=O)[C@H](Cc2ccc(O)cc2)NC(=O)[C@H](C)NC(=O)[C@H](Cc2ccc(F)cc2)NC(=O)[C@H](CC(C)C)NC(=O)[C@H](CCCCN)NC1=O,,PAMPA,,"200 µM, 5 h, pH 7.4",,membrane retention,< 0.01%
CCCCN1C(=O)c2cccc3c(NCCCCCN4CCOCC4)ccc(c23)C1=O,,,ethylene glycol,,,emission maximum,544 nm
CC[C@H](C)[C@@H](C(=O)N[C@@H](CC(C)C)C(=O)N[C@@H](CO)C(=O)N[C@@H](CO)C(=O)N[C@H](C(=O)N[C@@H](CCC(=O)O)C(=O)N[C@H](C(=O)NCC(=O)N[C@@H](CO)C(=O)N[C@@H](CC(N)=O)C(=O)N[C@H](C(=O)N1C[C@H](O)C[C@H]1C(N)=O)[C@@H](C)O)C(C)C)[C@@H](C)O)N(C)C(=O)[C@H](C)NC(=O)CN(C)C(=O)[C@H](Cc1ccccc1)NC(=O)[C@H](CO)NC(=O)[C@H](CO)NC(=O)[C@H](CCCNC(=N)N)NC(=O)[C@H](CCC(N)=O)NC(=O)[C@H](CC(C)C)NC(=O)[C@H](Cc1ccccc1)NC(=O)[C@H](CC(=O)O)NC(=O)[C@H](C)NC(=O)[C@H](CC(C)C)NC(=O)[C@H](CCCNC(=N)N)NC(=O)[C@H](CCC(N)=O)NC(=O)[C@@H](NC(=O)[C@H](C)NC(=O)[C@@H]1CSSC[C@H](NC(=O)[C@H](CCCNC(=N)N)NC(=O)CC[C@H](NC(=O)CCCCCCCCCCCCCCCCCCC(=O)O)C(=O)O)C(=O)N[C@@H](CC(N)=O)C(=O)N[C@@H]([C@@H](C)O)C(=O)N[C@@H](C)C(=O)N[C@@H]([C@@H](C)O)C(=O)N1)[C@@H](C)O,,LC-MS/MS,"male Sprague-Dawley rats, lean, plasma","subcutaneous, 30 nmol/kg single",,terminal half-life,> 30 h
Cc1nc2sccn2c1C=NOCc1ccc(-c2nc3cc(-c4ccccc4)ccn3c2Nc2ccc(C(=O)O)cc2)cc1,TDP1,"enzyme activity, inhibitor",,"100 µM, unpurified compound",,inhibition,93%
O=C(Nc1cnccc1-c1ccc([18F])cc1)c1ccnc(NC(=O)C2CC2)c1,,ex vivo gamma counting,"GSK-3β transgenic mice, late-stage, feces","intravenous, 120 min, mean, P-gp inhibitor pretreatment, with: tariquidar 15 mg/kg iv",,SUV,4.56
COc1cccc(OC)c1-c1cc(C(=O)NC2(C(=O)O)C3CC4CC(C3)CC2C4)nn1-c1ccc(C(=O)N(C)CCCN(C)CCCN(C)C(=O)[C@H](CCCCNC(=O)[C@H](CC(C)C)NC(=O)C2OC2C(=O)O)NC(=O)CN2CCN(CC(=O)[O-])CCN(CC(=O)[O-])CCN(CC(=O)[O-])CC2)cc1C(C)C.[177Lu+3] (mixture of isomers),,,mouse HT-29 xenograft,"4 h, biodistribution",reference: tumour over spleen,tumour-to-spleen ratio,15.9
Cc1ccc(=O)n(-c2ccc(O)cc2)c1,,,"BALB/c mouse, plasma","oral, 1.0 mmol/kg",,MRT,2.28 ± 0.12 h
C=C(NC(=O)c1csc(-c2nc3c(cc2O)-c2nc(cs2)C(=O)NC(C(C)O)C(=O)NC(=C(C)OC)c2nc(cs2)C(=O)NC2c4nc(cs4)C(=O)NC(COC(=O)c4c5c6c(cccc6n4O)COC(=O)C(OC4CC(C)(O)C(N(C)C)C(C)O4)C2OC5)c2nc-3cs2)n1)C(N)=O (stereo not drawn),,,"ICR mice, Streptococcus pneumoniae ATCC 49169 infected, immunocompromised, blood","intravenous, 2 mg/kg/day three times daily",,AUC(0-t),188 ng·h/mL
[123I]c1ccc2nc(-c3ccc(-n4ccnn4)nc3)cn2c1,,,"male Wistar rat, liver","intravenous, 4 MBq, 14 h",,tracer uptake,0.041 %ID/g
Cc1noc(C)c1Cn1cc(N2C(=O)CN(Cc3cccc(O[C@@H]4O[C@H](C(=O)O)[C@@H](O)[C@H](O)[C@H]4O)c3)C2=O)cn1,,,"Sprague-Dawley rat, male","oral, 100 mg/kg of parent drug, 8 h",,plasma concentration,478 ng/mL
Cc1ccc(OCC(=O)N(Cc2cccs2)c2ccn[nH]2)cc1,,,rat plasma,"750 ng/mL, 2 h, 37 °C, unit not given",reference: time zero,remaining compound,0.5
OC1(C(F)(F)F)CCN(c2nc(Nc3ccnc(C(F)(F)F)c3)nc(-c3cccc(C(F)(F)F)n3)n2)C1 (stereo not drawn),,,monkey,"oral, 3 mg/kg",,AUC(0-inf),29900 ± 3160 ng·h/mL
CC(C)(O)c1ncc([S@](N)(=O)=NC(=O)Nc2c3c(cc4c2CCC4)CCC3)s1,,measured: nervous system disorders,healthy human volunteers,"oral, 50 mg twice daily, 14 days, enteric-coated tablet",,subjects with adverse events,29%
Cc1nc(N2CCCCC2)nc(O)c1C=NOCc1ccc(-c2nc3cc(-c4ccccc4)ccn3c2Nc2ccc(C(=O)O)cc2)cc1 (mixture of isomers),TDP1,"enzyme activity, inhibitor",,"100 µM, unpurified compound",,inhibition,84.3%
CCCCN1C(=O)c2cccc3c(NCCCCCCN4CCOCC4)ccc(c23)C1=O,,,ethyl acetate,,,emission maximum,513 nm
C=CC(=O)N1CCCC(n2c(=O)c3ncccc3n(Cc3ccc(Oc4ccccc4)cc3)c2=O)C1 (stereo not drawn),,metabolic stability,"male Sprague-Dawley rat, hepatocytes","1 µM, 90 min",,compound remaining,0%
CCCCN1C(=O)c2cccc3c(NCCN4CCOCC4)ccc(c23)C1=O,,,ethyl acetate,,,emission maximum,512 nm
CC(C)(c1cc(Br)c(O)c(Br)c1)c1cc(Br)c(O)c(Br)c1,,,whole cow milk,2000 nM nominal,,dose fraction in milk fat,45.7%

# A few entries again:
SMILES,tested on,test,system,conditions,how to read,endpoint,result
OC1(C(F)(F)F)CCN(c2nc(Nc3ccnc(C(F)(F)F)c3)nc(-c3cccc(C(F)(F)F)n3)n2)C1 (stereo not drawn),,,monkey,"oral, 3 mg/kg",,AUC(0-inf),29900 ± 3160 ng·h/mL
